Assay results collected from several papers.
Each numbered part is a random draw from the data of one study; scales do not carry over between parts.

Series 1
Target: Fragile X messenger ribonucleoprotein 1, C-terminal low-complexity region (Fmr1, Mus musculus, UniProt P35922)
Method: RNA Bind-n-Seq
Form: RNA
Matrix: in vitro
Concentration: 200 nM
Setting: whole 134-nt RNA, ends assumed
Together with: 150 mM KCl
Baseline: input library
Direction: higher = stronger binding
Measurement: log2 enrichment
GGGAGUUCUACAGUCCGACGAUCUGAGAGGUGGAUUUUGUUUAUUUUUUUAGCUCAUUUCCAGGGGUGGGAAUUUUUUUUUAAUAUGUGUCAUGAAUAAAGUUGUUUUUGAAAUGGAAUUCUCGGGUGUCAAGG: 0.32
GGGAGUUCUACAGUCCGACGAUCCCUCAAGUCCUGUGCUACACAUCGUAUGUACCGAAUCGGGCGGGGCGGGCGGAAAGUAUUAUGUUACGCCGUUCGGAUCUGCACUUCCAGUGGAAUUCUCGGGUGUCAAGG: 0.655
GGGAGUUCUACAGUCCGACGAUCCACAGACAACACGCACCCACACAGACACAGAGGGAAGGGGUUGGGAUGGGGACAGGGUGCACAGCAGCGCGGGGUAGGACCCCAGCCCCUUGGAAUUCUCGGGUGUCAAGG: 1.3
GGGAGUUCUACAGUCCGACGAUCGUCCUGUGCUACACAUCGUAUGUACCGAAUCGGGAGGGAAAAAAAGGGAAAAAAAGGGAAAGUAUUAUGUUACGCCGUUCGGAUCUGCACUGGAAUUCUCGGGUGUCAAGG: 0.0248
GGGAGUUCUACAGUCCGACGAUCUGGCCCUGGUGGCAUGCGGGGAGGCAGAGGUGGCCUCAUGGAUCGUGGUGGUCCCGGUGGAAUGUUCAGAGGUGGCCGUGGUGGAGACAGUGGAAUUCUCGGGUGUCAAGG: 0.0548
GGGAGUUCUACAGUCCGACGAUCAUCAUUUCAUUUUUAUAAUUAUACAUUAGACAUUGGCACUUGUGUAAAACUGUCCCUGCAGAUUGAGCAGGAAGUAAAAACAAAUGGAAAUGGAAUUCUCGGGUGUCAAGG: 0.00914
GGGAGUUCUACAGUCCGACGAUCACCAUGCAGGUGGGCAUUUUUGGGAAGUGGGGCAAGGGGGGGAUAGGGAGGGGGGUAACACUUUGGGAACAGGUGGUCCCAGGUCGUUUCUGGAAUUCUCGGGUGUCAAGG: 0.782
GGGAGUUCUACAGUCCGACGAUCAAGUCCUGUGCUACACAUCGUAUGUACCGAAUCGGAAAAGGGGAAAAGGGGAAAAGGAAAGUAUUAUGUUACGCCGUUCGGAUCUGCACUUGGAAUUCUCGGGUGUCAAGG: -0.0852
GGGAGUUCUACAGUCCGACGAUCCUCAAGUCCUGUGCUACACAUCGUAUGUACCGAAUCGGGGCCGGCCGGGGCCGGAAAGUAUUAUGUUACGCCGUUCGGAUCUGCACUUCCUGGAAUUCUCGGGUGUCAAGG: 0.00579
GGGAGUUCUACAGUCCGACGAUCCUCAAGUCCUGUGCUACACAUCGUAUGUACCGAAUCGGAAAAAAAGGAGGUGGAAAGUAUUAUGUUACGCCGUUCGGAUCUGCACUUCCAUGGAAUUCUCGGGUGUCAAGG: -0.175

Series 2
Target: RNA binding protein fox-1 homolog 2, RRM domain, GST-SBP tag (RBFOX2, Homo sapiens, UniProt O43251-10, residues 100-194)
Method: RNA Bind-n-Seq
Form: RNA
Matrix: in vitro
Concentration: 365 nM
Setting: natural RNA segment, single round, ends assumed
Baseline: no-protein control
Direction: higher = stronger binding
Measurement: RBNS enrichment (R)
Residues (chain): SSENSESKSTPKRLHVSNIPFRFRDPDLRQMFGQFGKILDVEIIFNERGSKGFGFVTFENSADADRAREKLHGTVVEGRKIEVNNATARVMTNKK
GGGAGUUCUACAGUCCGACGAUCACGGAGUGUCACUUUCAACCGGCCUCCCCUACCCCUGCUGGCCGGGGAUGGAGACAUGUCAUUUGUAAAAGCAGAAAAAGGUUGCAUUUGUUCACUUUUGUAAUAUUGUCUGGAAUUCUCGGGUGCCAA: 0.334
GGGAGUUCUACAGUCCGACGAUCUUUACCUUGAGCACUUGCCUCCUCAGACUUUUAGACCAGUGGUUUACUGUGCCCUUUCUUCCCAUCACCUUGCUCUCUCUGGCUCUGUCUCUUCUUGCUGUCUCUCUCCUUGGAAUUCUCGGGUGCCAA: 0.852
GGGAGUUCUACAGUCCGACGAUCAGUUGUGUCUCUUUGGGAAUUGGAUUUGAUUUUUAUUAUUUAAUACCUCACUUUGGCCCGUCCCCCCUCCCAACACUUCUGUAUCCUCGCCCUGCCGCCCCAGCCUGGACUGGAAUUCUCGGGUGCCAA: 0.533
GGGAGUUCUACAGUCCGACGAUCGCUUGAAUUUUAACCAUUUAUUACAUAAUCUCUAGUGAUCAUGCAUCUAGUUAUCAUAAGAAAUAAUUUAAAAGGUUUUGUUGCUGAAAGCAGUAAGUGGUGCAGUAAAAUGGAAUUCUCGGGUGCCAA: 0.914
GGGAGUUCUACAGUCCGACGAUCCAGGGCCACAGCUGCCACCUGCCAGCCUCUGGAGCCACCACCAUUUGGGUCUCCUCAGGCCCCCGGGCCCACCUGCCCUGAAGGCAGCAGCAAGUUUCUUCUGCAGCCCUUGGAAUUCUCGGGUGCCAA: 0.267
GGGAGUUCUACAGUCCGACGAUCGCCACACUCCCUUAACUGGGAAGUACCUGCCACGUAGGGCAUUUCUGCUGCCUAUUUCCAGCCAGCGGCUGCAUGGUUUGAAGUUCCUCCGUUGUGGUCAGAGGAACUCUUGGAAUUCUCGGGUGCCAA: 6.11
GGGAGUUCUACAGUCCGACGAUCAGACACAGGAAGAAUGGGCUGCAGAAGAUUUAGAUGUUUUCCAUUUGGGCACAUUUUACUUAGCUGGAGAACUAGGUUUAAAACAGCCUGGGUAGGAAAAUUAGAAGCAAUGGAAUUCUCGGGUGCCAA: 1.13
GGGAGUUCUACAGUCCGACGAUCUAGGGCUUUCAUCUUGCCUUGCCCUCCCUUUCUGUCCCAUCUGCAGCCUCACCAGGUGGGCUUGUAGCCUCUAUUAUGCAAAUAUUCGUAGCUCAGCUUUCAGAGCGCUAUGGAAUUCUCGGGUGCCAA: 0.88
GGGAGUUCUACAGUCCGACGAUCGUGUCAAUAUCAUUGAUUUCUUUUUCAUAUGAAGAUCCACAUGCAUUGUAAGAUUGUGAAGAUAUAUAAAAUUGAUGAAUUAAGAGAAAUUAUGCCACUUUCCUAUAGUUUGGAAUUCUCGGGUGCCAA: 1.03
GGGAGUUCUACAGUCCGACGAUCCAGGCCCGACCUUGAUGUCCACCUCCACAGCCUGGGCUUCUGCCUGGAGCCUGGCAGCCACAGACAUCAUACACAGCCUCUGAAGCUUAUUAAAGUAUGUUCACCCACUGUGGAAUUCUCGGGUGCCAA: 0.238
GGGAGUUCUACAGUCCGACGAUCUAAGUUUGUGAGGUACAAGAAUAUGUUUUCAUGAAAGUAACAUUGUUUAUCUAGCAAACGUGACAAUAUUUUUAUGUAUAUAAUGAUUCUAAUCUAAGUUAAUUAAUGUGUGGAAUUCUCGGGUGCCAA: 0.62
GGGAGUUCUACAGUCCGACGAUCAACCUAUGUUUAACCAAUCUUUGCACCAAAGGACUUUUUCACCAAUUUAUUUUGUUAUUCUUCCAAAUAUUAAGUGAUUUCUAAAAGGUAAAGGGUGACCUUUUGUUUUUUGGAAUUCUCGGGUGCCAA: 0.505

Series 3
Target: Sal-like protein 4, full length isoform A (SALL4, Homo sapiens, UniProt Q9UJQ4, residues 1-1053)
Chain of UniProt Q9UJQ4 (whole entry, looked up): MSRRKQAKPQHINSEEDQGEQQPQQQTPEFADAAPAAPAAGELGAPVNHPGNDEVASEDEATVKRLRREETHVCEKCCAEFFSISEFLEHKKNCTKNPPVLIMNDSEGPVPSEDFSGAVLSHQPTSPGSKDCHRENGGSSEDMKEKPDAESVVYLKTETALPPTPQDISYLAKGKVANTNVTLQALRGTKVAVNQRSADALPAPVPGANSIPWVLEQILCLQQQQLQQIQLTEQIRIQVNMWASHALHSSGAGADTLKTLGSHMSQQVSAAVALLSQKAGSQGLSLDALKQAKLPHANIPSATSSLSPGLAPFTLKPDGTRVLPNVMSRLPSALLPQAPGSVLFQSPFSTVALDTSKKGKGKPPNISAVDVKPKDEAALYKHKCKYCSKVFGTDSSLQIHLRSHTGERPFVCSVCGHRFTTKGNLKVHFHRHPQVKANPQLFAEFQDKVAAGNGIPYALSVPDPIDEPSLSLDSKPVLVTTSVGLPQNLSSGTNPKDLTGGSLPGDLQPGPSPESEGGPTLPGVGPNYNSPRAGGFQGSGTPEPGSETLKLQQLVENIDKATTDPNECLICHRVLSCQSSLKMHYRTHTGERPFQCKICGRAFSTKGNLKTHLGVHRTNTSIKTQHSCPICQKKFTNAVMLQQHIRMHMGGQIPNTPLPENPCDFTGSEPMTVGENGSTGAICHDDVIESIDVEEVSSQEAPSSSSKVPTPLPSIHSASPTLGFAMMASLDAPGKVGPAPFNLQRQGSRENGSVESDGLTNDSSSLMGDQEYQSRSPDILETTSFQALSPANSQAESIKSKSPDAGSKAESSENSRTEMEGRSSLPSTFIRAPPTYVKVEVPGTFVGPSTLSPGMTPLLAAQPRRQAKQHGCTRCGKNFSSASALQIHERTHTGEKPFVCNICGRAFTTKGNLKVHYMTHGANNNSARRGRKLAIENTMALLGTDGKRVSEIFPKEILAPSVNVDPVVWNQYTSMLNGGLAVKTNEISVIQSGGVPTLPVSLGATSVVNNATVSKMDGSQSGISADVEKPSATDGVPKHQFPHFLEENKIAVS
Method: universal PBM
Form: double-stranded DNA, one strand shown
Matrix: in vitro
Concentration: 600 nM
Setting: 8-mer, flanks averaged, mean of replicates
Direction: higher = stronger binding
Measurement: E-score
CATAGGAA: 0.11
CACCGGCA: -0.265
CAGTCTAC: -0.0372
GAGGACGC: -0.232
AATCACAT: 0.172
CACAATCC: 0.0268
CCAGTTTC: -0.263
GAGATAGC: -0.0684
ATCAAGCA: 0.127
AAGCCCAC: -0.21
GGGCATTA: -0.0698
ACAGAAGG: -0.245
ACCTTGAT: 0.0563
ACTGCCCT: -0.216
AAGCGAAT: 0.0326
ACCGGATA: -0.0938
GCTAACAC: -0.146
GTTGGTAA: 0.122
GGTTAACC: -0.149
GCAGTGAC: -0.221
CACAACAC: 0.108
CATGACCG: -0.105
AGAAGACG: -0.0245
GCCTCCTA: -0.193
ATTCAATA: 0.375

Series 4
Target: Prothrombin, mature alpha-thrombin (F2, Homo sapiens, UniProt P00734)
Method: aptamer microarray, sandwich
Form: DNA with 2'F-ANA
Matrix: in vitro
Concentration: 200 nM
Setting: whole 15-mer aptamer, many near background
Together with: Cy3 exosite-II aptamer, 400 nM
Direction: higher = stronger binding
Measurement: mean fluorescence intensity
Sequence: GGTTGGTGTGGTTGG
2'F-ANA at 2 4 5 10 13 15: 70.8 a.u.
2'F-ANA at 3 4 5 7 9 10 11 12 15: 59.5 a.u.
2'F-ANA at 3 4 8 9 11 14 15: 260 a.u.
2'F-ANA at 4 8 10 12: 129 a.u.
2'F-ANA at 2 3 4 6 7 14 15: 251 a.u.
2'F-ANA at 1 2 3 5 7 9 10 15: 45.9 a.u.
2'F-ANA at 4 5 6 7 8 9 11 12 14: 48.2 a.u.
2'F-ANA at 2 5 10 12 13: 48.4 a.u.
2'F-ANA at 1 3 5 9 10 11 13: 49.2 a.u.
2'F-ANA at 1 5 7 9 10 12: 49.3 a.u.
2'F-ANA at 5 7 8 10 11 13 15: 47.1 a.u.
2'F-ANA at 2 6 7 8 9 10 11: 103 a.u.
2'F-ANA at 1 2 3 12 13 14 15: 95.1 a.u.
2'F-ANA at 1 2 3 4 9 12 14 15: 70.9 a.u.
2'F-ANA at 2 5 7 8 13: 61.6 a.u.
2'F-ANA at 5 7 12 13 14 15: 50 a.u.
2'F-ANA at 1 2 3 4 13 14 15: 59.2 a.u.
2'F-ANA at 4 7 9 10 11 13 15: 69.3 a.u.
2'F-ANA at 1 2 5 6 7 8 9 11 13 15: 51.5 a.u.
2'F-ANA at 1 2 3 6 12 14 15: 117 a.u.
2'F-ANA at 3 7 8 13 14: 713 a.u.

Some of these lines once more (series 4):
2'F-ANA at 1 2 3 12 13 14 15: 95.1 a.u.
2'F-ANA at 1 5 7 9 10 12: 49.3 a.u.
2'F-ANA at 2 6 7 8 9 10 11: 103 a.u.
2'F-ANA at 3 7 8 13 14: 713 a.u.
